# Measurements from different studies.
# Every numbered part comes from another study and shows a few of its results, in no order. Values joined by “and” are separate records of one study, mostly repeats; a detail may differ. Numbers after ± are the reported error.

# Sample 1
# Target: C-X-C chemokine receptor type 4 (CXCR4, Homo sapiens, UniProt P61073)
# Sequence of UniProt P61073 (whole entry, looked up): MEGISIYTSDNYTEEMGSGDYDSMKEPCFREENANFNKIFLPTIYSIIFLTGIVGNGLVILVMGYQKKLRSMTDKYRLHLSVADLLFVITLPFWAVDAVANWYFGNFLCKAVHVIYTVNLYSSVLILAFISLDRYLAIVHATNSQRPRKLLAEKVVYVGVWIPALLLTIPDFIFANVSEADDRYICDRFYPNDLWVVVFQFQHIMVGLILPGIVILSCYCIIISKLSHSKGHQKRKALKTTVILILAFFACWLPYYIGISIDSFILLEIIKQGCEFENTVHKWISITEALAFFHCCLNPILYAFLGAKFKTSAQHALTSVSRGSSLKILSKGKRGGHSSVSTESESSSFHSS
# Read-out: ligand displacement
# Method: radioligand
Compound,IC50
CC(C)C[C@H](NC(=O)[C@H](CO)NC(=O)[C@@H](NC(=O)[C@@H]1CCCN1C(=O)[C@@H](N)CCCCN)C(C)C)C(=O)N[C@@H](CO)C(=O)N[C@@H](Cc1ccc(O)cc1)C(=O)NCCCC[C@@H]1NC(=O)[C@H](CCCNC(=N)N)NC(=O)[C@H](Cc2ccc(O)cc2)NC(=O)[C@@H]2CCCN2C(=O)[C@@H](CCCCN)NC(=O)[C@H](CCCCN)NC(=O)[C@H](CCCNC(=N)N)NC(=O)[C@H](Cc2ccc(O)cc2)NC(=O)[C@@H](NC(=O)[C@H](Cc2ccc3ccccc3c2)NC(=O)[C@H](CCCNC(=N)N)NC(=O)[C@@H](N)CCCNC(=N)N)CSSC[C@@H](C(=O)N[C@@H](CCCNC(=N)N)C(=O)O)NC1=O,1.36 nM and 2.22 nM
CC(C)C[C@H](NC(=O)[C@H](CO)NC(=O)[C@@H](NC(=O)[C@@H]1CCCN1C(=O)[C@@H](N)CCCCN)C(C)C)C(=O)N[C@@H](CO)C(=O)N[C@@H](Cc1ccc(O)cc1)C(=O)N[C@@H](CCCNC(=N)N)C(=O)N[C@@H](CO)C(=O)N1CCC[C@H]1C(=O)NCCCC[C@H](NC(=O)[C@@H]1CSSC[C@H](NC(=O)[C@H](Cc2ccc3ccccc3c2)NC(=O)[C@H](CCCNC(=N)N)NC(=O)[C@@H](N)CCCNC(=N)N)C(=O)N[C@@H](Cc2ccc(O)cc2)C(=O)N[C@@H](CCCNC(=N)N)C(=O)N[C@@H](CCCCN)C(=O)N[C@H](CCCCN)C(=O)N2CCC[C@H]2C(=O)N[C@@H](Cc2ccc(O)cc2)C(=O)N[C@@H](CCCNC(=N)N)C(=O)N[C@@H](CCCNC(=N)N)C(=O)N1)C(=O)O,9.57 nM
CC(C)C[C@H](NC(=O)[C@H](CO)NC(=O)[C@@H](NC(=O)[C@@H]1CCCN1C(=O)[C@@H](N)CCCCN)C(C)C)C(=O)N[C@@H](CO)C(=O)N[C@@H](Cc1ccc(O)cc1)C(=O)NCCCC[C@H](NC(=O)[C@@H]1CSSC[C@H](NC(=O)[C@H](Cc2ccc3ccccc3c2)NC(=O)[C@H](CCCNC(=N)N)NC(=O)[C@@H](N)CCCNC(=N)N)C(=O)N[C@@H](Cc2ccc(O)cc2)C(=O)N[C@@H](CCCNC(=N)N)C(=O)N[C@@H](CCCCN)C(=O)N[C@H](CCCCN)C(=O)N2CCC[C@H]2C(=O)N[C@@H](Cc2ccc(O)cc2)C(=O)N[C@@H](CCCNC(=N)N)C(=O)N[C@@H](CCCNC(N)=O)C(=O)N1)C(=O)O,170 nM

# Mixed results
Structure (SMILES),tested on,assay,test system,setting,scale,measurement,result
O=C(O)COc1ccccc1/C=N/NC(=O)CNc1ccc(Cl)cc1,,,"male mice, pilocarpine-induced seizures","oral, 20 mg/kg, 24 h, dosed 30 min before pilocarpine, with: pilocarpine 300 mg/kg i.p.",,survival,70%
C=CCCCC(C)(NC(=O)[C@H](Cc1c[nH]cn1)NC(=O)[C@@H](N)CC(=O)O)C(=O)N[C@@H](CC(N)=O)C(=O)N1CCC[C@H]1C(=O)N[C@@H](CCC(N)=O)C(=O)N[C@H](C(=O)N[C@@H](CCCNC(=N)N)C(N)=O)[C@@H](C)CC (stereo partly shown),,,"Kunming mouse, male","subcutaneous, 5000 mg/kg",reference: PBS control,spleen coefficient,increased
O=C(O)COc1ccc(Br)cc1C=NNC(=O)Cc1ccccc1 (mixture of isomers),,measured: ALT,"mouse, serum","oral, 100 mg/kg, 48 h, safety assessment",,serum enzyme activity,35.8 ± 6.22 IU/L
C=CCCCC(C)(NC(=O)[C@H](CC(N)=O)NC(=O)[C@H](Cc1c[nH]cn1)NC(=O)[C@@H](N)CC(=O)O)C(=O)N1CCC[C@H]1C(=O)N[C@@H](CCC(N)=O)C(=O)N[C@H](C(=O)N[C@@H](CCCNC(=N)N)C(N)=O)[C@@H](C)CC (stereo partly shown),NIH3T3,"cytotoxicity, MTT",,"up to 10 µM, 24 h",,viability,not toxic
O=C(O)COc1ccc(Br)cc1/C=N/NC(=O)c1ccc(Cl)cc1,,,"mice, PTZ-induced seizures","oral, 20 mg/kg, 24 h after PTZ",,mortality,10%
CC[C@H](C)[C@@H]1NC(=O)[C@H](C(C)C)NC(=O)[C@H](Cc2ccccc2)NC(=O)[C@H](Cc2ccccc2)NC(=O)[C@@H]2CCCN2C(=O)[C@@H]2CCCN2C(=O)[C@H]([C@@H](C)CC)NC(=O)[C@H](CC(C)C)NC(=O)[C@H](CC[S+](C)[O-])NC1=O (stereo partly shown),SK-BR-3,LDH release,,"400 µg/mL, 24 h",,cytotoxicity,36%
Cc1ccc(NCC(=O)N/N=C/c2cc(Br)ccc2OCC(=O)O)cc1,,,"mice, PTZ-induced seizures","oral, 20 mg/kg, 24 h after PTZ",,mortality,50%

# For quick reference, copied from above (sample 1):
Compound,IC50
CC(C)C[C@H](NC(=O)[C@H](CO)NC(=O)[C@@H](NC(=O)[C@@H]1CCCN1C(=O)[C@@H](N)CCCCN)C(C)C)C(=O)N[C@@H](CO)C(=O)N[C@@H](Cc1ccc(O)cc1)C(=O)N[C@@H](CCCNC(=N)N)C(=O)N[C@@H](CO)C(=O)N1CCC[C@H]1C(=O)NCCCC[C@H](NC(=O)[C@@H]1CSSC[C@H](NC(=O)[C@H](Cc2ccc3ccccc3c2)NC(=O)[C@H](CCCNC(=N)N)NC(=O)[C@@H](N)CCCNC(=N)N)C(=O)N[C@@H](Cc2ccc(O)cc2)C(=O)N[C@@H](CCCNC(=N)N)C(=O)N[C@@H](CCCCN)C(=O)N[C@H](CCCCN)C(=O)N2CCC[C@H]2C(=O)N[C@@H](Cc2ccc(O)cc2)C(=O)N[C@@H](CCCNC(=N)N)C(=O)N[C@@H](CCCNC(=N)N)C(=O)N1)C(=O)O,9.57 nM
